{"sequences": {"note": "The chains behind the UniProt entries cited, without tags or fusion partners.", "UniProt P33534, whole entry": "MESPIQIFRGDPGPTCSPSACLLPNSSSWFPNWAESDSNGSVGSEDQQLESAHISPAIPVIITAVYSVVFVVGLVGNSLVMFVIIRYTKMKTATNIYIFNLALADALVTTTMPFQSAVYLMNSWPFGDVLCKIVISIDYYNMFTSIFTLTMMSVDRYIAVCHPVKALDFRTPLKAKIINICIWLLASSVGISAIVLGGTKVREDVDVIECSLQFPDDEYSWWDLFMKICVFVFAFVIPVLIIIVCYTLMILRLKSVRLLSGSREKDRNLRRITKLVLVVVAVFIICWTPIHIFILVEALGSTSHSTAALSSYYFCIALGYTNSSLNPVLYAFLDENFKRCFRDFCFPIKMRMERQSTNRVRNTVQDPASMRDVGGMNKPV", "UniProt P16469, whole entry": "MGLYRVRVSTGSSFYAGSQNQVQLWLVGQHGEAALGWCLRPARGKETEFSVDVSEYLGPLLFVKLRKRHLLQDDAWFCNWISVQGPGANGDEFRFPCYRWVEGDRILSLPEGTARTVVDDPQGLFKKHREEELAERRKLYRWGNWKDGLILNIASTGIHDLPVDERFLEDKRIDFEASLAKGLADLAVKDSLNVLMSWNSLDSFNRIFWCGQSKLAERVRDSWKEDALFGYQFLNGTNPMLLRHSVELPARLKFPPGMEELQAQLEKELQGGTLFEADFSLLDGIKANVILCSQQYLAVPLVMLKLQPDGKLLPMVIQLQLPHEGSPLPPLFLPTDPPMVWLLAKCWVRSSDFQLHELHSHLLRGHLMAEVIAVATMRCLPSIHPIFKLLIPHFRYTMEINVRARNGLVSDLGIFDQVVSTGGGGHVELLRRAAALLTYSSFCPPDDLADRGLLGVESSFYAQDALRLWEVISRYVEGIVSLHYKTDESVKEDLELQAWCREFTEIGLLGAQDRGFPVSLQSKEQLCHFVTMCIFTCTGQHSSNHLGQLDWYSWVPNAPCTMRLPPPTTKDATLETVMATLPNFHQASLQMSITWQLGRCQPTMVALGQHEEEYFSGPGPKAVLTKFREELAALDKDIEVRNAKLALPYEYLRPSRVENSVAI", "UniProt P28223, whole entry": "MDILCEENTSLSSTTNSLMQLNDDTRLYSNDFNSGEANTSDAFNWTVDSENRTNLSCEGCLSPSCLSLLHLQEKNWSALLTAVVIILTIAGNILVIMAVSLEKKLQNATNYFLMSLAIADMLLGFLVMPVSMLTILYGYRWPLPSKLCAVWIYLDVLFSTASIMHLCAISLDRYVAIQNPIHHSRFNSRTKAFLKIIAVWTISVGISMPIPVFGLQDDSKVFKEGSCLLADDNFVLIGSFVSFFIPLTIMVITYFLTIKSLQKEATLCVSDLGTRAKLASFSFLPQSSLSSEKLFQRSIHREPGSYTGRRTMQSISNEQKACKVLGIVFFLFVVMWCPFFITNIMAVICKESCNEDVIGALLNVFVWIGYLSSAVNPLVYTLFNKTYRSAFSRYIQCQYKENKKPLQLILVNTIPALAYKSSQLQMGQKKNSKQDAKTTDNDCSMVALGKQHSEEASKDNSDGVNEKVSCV"}, "data": "Values quoted from earlier work as cited in several papers", "note": "Protocols differ between the studies behind these lines. ± marks the error that the study gave."}
{"Structure (SMILES)": "c1ccc2c(c1)ccc[n+]2CCCCCCCCCC[n+]1cccc2ccccc21", "target or system": "muscle-type nicotinic acetylcholine receptor", "test": "acetylcholine-evoked current, antagonist", "conditions": "added: acetylcholine 100 µM", "measurement": "IC50", "result": "570 ± 5 nM"}
{"Structure (SMILES)": "CNCCNC(=O)c1cc2c([nH]c3c(C)cccc32)c(-c2ccc(Cl)c(Cl)c2)n1", "target or system": "Plasmodium falciparum", "conditions": "concentration not given, rescue by IPP supplementation, added: exogenous IPP", "measurement": "growth inhibition", "result": "no effect"}
{"Structure (SMILES)": "CN(CCNCc1cc(Cl)cc(Cl)c1)c1nc2nc(Cl)ccc2[nH]1", "target or system": "Trypanosoma brucei", "test": "cell growth", "measurement": "EC50", "result": "22 nM"}
{"Structure (SMILES)": "O=CN(O)C/C=C/P(=O)(O)O", "target or system": "Plasmodium falciparum", "test": "parasite growth, inhibitor", "test system": "3D7", "measurement": "IC50", "result": "13 to 19 nM"}
{"Structure (SMILES)": "CCCCCCCCCCCCNC(=O)N[C@H](C(=O)N[C@H]1/C=C/CCNC(=O)/C=C/[C@H](C)NC1=O)C(C)C", "target or system": "constitutive proteasome, chymotrypsin-like site", "test": "enzyme activity", "measurement": "Ki", "result": "18 nM"}
{"Structure (SMILES)": "O=c1c2ccc(Oc3ccc(OC(F)(F)F)cc3)cc2[nH]c2cc(F)cc(F)c12", "target or system": "Plasmodium falciparum", "test": "parasite growth", "test system": "Tm90-C2B atovaquone-resistant", "scale": "relative to: Tm90-C2B over D6 strain", "measurement": "EC50 ratio", "result": "> 100 fold"}
{"Structure (SMILES)": "N#Cc1cc(C(=O)N[C@@H]2CC[C@@]3(O)[C@H]4Cc5ccc(O)c6c5[C@@]3(CCN4CC3CC3)[C@H]2O6)ccn1", "target or system": "Kappa-type opioid receptor (Oprk1, Mus musculus, UniProt P33534)", "scale": "relative to: Ki µ over Ki κ", "measurement": "selectivity ratio", "result": 9.62}
{"Structure (SMILES)": "NCCNCCSc1ccccc1", "test system": "plasma", "conditions": "1 µg/mL, 24 h, room temperature", "measurement": "short-term stability", "result": "95.9 ± 3.76 % remaining"}
{"Structure (SMILES)": "CCC(=O)Nc1c(NC[C@H](O)[C@H](O)[C@H](O)CO)[nH]c(=O)[nH]c1=O", "target or system": "Bacillus subtilis lumazine synthase", "test": "uncompetitive inhibitor", "conditions": "pH 7.0", "measurement": "Kis", "result": "56 ± 12 µM"}
{"Structure (SMILES)": "Ic1ccc(CSCn2ccnc2)cc1", "target or system": "Arachidonate 12-lipoxygenase (ALOX15, Sus scrofa, UniProt P16469)", "test": "enzyme activity, inhibitor", "measurement": "Ki", "result": "> 10000 nM"}
{"Structure (SMILES)": "CN(C(=O)Cc1ccc(Cl)c(Cl)c1)[C@@H]1CCCC[C@H]1N1CCCC1", "target or system": "Trypanosoma brucei", "test": "parasite growth", "measurement": "EC50", "result": "59 nM"}
{"Structure (SMILES)": "Nc1nc(Cl)nc2c1ncn2[C@H]1[C@H](O)[C@H](O)[C@]2(CO)C[C@H]12", "target or system": "5-hydroxytryptamine receptor 2A (HTR2A, Homo sapiens, UniProt P28223)", "conditions": "10 µM, added: [3H]ketanserin", "measurement": "inhibition", "result": "5%"}
{"Structure (SMILES)": "CCCCCCCCCCSCC(P(=O)(O)O)P(=O)(O)O", "target or system": "Toxoplasma gondii", "test": "growth", "test system": "tachyzoites", "measurement": "EC50", "result": "1800 nM"}
{"Structure (SMILES)": "N[C@@H](Cc1ccc(O)cc1)C(=O)N1Cc2ccccc2C[C@H]1CN[C@@H](CC1CCCCC1)C(=O)N[C@@H](Cc1ccccc1)C(=O)O", "test": "muscle contraction, agonist", "test system": "guinea pig ileum", "measurement": "IC50", "result": "inactive"}
{"Structure (SMILES)": "O=C(N[C@@H]1CC[C@@]2(O)[C@H]3Cc4ccc(O)c5c4[C@@]2(CCN3CC2CC2)[C@H]1O5)c1ccncc1F", "target or system": "kappa opioid receptor", "test": "binding", "measurement": "Ki", "result": "4.8 ± 0.26 nM"}
{"Structure (SMILES)": "C=CCN1CC[C@]23c4c5ccc(O)c4O[C@H]2[C@H](NC(=O)c2cccc(I)c2)CC[C@@]3(O)[C@H]1C5", "test": "tail flick analgesia", "test system": "CD1 mice", "measurement": "ED50", "result": "0.6 mg/kg"}
{"Structure (SMILES)": "N[C@@H](Cc1ccc(C(=O)NCCc2ccc(-c3ccccc3)cc2)cc1)C(=O)N1Cc2ccccc2C[C@H]1C(=O)O", "target or system": "mu opioid receptor", "test": "muscle contraction, antagonist", "test system": "guinea pig ileum", "measurement": "Ke", "result": "5.38 ± 0.38 µM"}
{"Structure (SMILES)": "O=C(Cc1cccs1)NC(B(O)O)c1cccc(C(=O)O)c1 (stereo not drawn)", "target or system": "Escherichia coli AmpC β-lactamase", "test": "inhibitor", "measurement": "Ki", "result": "1 nM"}
{"note": "Some of these lines once more:"}
{"Structure (SMILES)": "CN(CCNCc1cc(Cl)cc(Cl)c1)c1nc2nc(Cl)ccc2[nH]1", "target or system": "Trypanosoma brucei", "test": "cell growth", "measurement": "EC50", "result": "22 nM"}
{"Structure (SMILES)": "O=CN(O)C/C=C/P(=O)(O)O", "target or system": "Plasmodium falciparum", "test": "parasite growth, inhibitor", "test system": "3D7", "measurement": "IC50", "result": "13 to 19 nM"}
